Assay results of several laboratories.
Lines come from different studies, so protocols differ. Several values in a cell are separate wells, animals, samples, runs or records. ± marks the error that the study gave.
VHL with elongin B/C: von Hippel-Lindau disease tumor suppressor, with elongin B/C (VHL, Homo sapiens, UniProt P40337)
IFIT1: Antiviral innate immune response effector IFIT1 (IFIT1, Homo sapiens, UniProt P09914)
Sequence of UniProt P09914 (whole entry, looked up): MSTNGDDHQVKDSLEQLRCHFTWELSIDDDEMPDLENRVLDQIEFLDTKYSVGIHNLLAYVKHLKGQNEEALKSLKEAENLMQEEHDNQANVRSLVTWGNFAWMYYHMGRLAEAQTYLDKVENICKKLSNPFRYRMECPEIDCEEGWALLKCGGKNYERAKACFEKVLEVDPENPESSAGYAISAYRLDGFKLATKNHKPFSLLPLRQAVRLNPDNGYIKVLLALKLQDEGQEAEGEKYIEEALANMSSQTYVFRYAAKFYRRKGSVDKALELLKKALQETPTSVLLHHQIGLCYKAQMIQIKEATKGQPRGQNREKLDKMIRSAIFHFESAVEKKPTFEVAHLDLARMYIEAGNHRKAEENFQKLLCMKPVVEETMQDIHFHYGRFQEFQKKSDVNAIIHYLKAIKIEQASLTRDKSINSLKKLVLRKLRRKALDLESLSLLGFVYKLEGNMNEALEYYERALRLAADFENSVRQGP
Sequence of UniProt Q9SZU7 (whole entry, unmodified, looked up): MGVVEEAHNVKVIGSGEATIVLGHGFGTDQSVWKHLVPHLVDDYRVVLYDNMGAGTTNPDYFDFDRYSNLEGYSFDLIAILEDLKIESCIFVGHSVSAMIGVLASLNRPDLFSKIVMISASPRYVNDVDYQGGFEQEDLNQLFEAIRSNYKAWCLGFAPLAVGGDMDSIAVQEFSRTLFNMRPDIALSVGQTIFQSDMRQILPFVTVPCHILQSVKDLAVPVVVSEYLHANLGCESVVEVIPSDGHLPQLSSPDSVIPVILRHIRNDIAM
Sequence of UniProt P63073 (28-217, looked up): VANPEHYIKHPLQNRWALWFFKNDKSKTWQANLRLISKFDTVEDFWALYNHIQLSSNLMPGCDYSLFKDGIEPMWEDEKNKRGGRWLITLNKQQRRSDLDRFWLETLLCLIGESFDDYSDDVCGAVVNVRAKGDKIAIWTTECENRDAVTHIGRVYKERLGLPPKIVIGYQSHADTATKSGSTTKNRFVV
Sequence of UniProt P25440 (whole entry, looked up): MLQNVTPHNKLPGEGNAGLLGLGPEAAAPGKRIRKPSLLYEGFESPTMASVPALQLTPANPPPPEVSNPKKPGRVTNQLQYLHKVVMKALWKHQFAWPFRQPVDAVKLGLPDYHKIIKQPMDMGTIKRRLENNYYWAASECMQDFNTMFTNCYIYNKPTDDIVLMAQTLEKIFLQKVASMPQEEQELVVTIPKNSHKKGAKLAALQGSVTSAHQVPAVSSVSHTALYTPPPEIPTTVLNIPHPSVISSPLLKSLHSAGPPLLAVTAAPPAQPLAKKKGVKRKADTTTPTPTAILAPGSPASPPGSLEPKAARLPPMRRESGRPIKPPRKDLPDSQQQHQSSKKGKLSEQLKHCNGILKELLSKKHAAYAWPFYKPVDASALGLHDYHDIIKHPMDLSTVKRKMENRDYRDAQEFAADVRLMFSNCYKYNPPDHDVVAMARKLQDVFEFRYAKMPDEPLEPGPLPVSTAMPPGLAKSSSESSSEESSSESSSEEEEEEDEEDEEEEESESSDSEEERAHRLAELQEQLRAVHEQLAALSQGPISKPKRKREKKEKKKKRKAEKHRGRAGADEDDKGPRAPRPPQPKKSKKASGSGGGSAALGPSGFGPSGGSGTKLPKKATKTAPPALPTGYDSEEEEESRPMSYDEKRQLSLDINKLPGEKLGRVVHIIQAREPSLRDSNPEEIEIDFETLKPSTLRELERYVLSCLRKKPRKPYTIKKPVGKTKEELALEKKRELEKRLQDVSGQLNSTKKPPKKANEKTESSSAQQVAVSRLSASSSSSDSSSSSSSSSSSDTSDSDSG
Sequence of UniProt P00915 (whole entry, looked up): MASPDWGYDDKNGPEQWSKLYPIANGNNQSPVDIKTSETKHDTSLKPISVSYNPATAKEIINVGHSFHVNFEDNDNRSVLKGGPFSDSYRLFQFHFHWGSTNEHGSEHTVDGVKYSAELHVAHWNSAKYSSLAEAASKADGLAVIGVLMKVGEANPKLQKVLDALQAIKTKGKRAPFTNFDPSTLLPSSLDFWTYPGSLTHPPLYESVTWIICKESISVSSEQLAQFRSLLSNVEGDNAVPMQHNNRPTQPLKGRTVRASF
Sequence of UniProt Q86WV6 (whole entry, unmodified, looked up): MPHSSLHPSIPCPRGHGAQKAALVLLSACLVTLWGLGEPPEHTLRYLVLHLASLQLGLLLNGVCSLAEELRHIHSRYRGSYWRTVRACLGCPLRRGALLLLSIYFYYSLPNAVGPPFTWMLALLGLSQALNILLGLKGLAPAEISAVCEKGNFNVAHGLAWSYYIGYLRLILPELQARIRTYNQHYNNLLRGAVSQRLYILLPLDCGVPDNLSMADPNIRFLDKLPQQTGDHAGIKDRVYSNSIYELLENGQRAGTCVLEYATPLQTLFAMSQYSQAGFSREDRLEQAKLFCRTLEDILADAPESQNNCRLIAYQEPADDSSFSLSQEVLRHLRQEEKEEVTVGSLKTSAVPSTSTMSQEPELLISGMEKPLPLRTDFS
Sequence of UniProt O15075 (whole entry, looked up): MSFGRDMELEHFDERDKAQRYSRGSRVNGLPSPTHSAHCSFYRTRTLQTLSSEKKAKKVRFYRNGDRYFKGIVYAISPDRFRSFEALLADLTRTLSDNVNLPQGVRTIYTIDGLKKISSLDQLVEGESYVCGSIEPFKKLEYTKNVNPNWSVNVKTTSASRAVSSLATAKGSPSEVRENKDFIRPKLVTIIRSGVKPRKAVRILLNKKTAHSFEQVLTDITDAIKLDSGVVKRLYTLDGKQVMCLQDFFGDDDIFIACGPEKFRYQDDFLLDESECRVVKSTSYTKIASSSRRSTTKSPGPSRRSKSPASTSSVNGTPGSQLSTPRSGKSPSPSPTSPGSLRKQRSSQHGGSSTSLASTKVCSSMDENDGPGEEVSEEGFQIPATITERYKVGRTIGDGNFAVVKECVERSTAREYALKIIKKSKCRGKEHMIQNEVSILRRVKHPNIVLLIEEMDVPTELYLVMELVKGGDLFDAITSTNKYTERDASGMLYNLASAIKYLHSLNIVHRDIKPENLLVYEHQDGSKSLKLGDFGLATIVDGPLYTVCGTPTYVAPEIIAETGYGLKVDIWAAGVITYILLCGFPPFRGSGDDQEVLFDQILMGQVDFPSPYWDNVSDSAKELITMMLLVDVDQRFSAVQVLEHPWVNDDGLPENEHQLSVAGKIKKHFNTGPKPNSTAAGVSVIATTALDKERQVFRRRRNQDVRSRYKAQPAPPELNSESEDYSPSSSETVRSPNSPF
Sequence of UniProt Q13011 (whole entry, looked up): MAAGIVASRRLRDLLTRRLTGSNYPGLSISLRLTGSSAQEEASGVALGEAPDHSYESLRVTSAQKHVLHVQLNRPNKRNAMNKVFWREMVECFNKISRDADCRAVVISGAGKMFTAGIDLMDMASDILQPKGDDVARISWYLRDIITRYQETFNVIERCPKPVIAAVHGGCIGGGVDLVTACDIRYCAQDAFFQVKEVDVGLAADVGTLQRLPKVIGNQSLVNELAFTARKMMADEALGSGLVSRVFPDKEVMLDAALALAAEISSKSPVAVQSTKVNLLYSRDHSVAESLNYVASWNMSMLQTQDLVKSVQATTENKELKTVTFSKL
Sequence of UniProt Q9HC29 (whole entry, looked up): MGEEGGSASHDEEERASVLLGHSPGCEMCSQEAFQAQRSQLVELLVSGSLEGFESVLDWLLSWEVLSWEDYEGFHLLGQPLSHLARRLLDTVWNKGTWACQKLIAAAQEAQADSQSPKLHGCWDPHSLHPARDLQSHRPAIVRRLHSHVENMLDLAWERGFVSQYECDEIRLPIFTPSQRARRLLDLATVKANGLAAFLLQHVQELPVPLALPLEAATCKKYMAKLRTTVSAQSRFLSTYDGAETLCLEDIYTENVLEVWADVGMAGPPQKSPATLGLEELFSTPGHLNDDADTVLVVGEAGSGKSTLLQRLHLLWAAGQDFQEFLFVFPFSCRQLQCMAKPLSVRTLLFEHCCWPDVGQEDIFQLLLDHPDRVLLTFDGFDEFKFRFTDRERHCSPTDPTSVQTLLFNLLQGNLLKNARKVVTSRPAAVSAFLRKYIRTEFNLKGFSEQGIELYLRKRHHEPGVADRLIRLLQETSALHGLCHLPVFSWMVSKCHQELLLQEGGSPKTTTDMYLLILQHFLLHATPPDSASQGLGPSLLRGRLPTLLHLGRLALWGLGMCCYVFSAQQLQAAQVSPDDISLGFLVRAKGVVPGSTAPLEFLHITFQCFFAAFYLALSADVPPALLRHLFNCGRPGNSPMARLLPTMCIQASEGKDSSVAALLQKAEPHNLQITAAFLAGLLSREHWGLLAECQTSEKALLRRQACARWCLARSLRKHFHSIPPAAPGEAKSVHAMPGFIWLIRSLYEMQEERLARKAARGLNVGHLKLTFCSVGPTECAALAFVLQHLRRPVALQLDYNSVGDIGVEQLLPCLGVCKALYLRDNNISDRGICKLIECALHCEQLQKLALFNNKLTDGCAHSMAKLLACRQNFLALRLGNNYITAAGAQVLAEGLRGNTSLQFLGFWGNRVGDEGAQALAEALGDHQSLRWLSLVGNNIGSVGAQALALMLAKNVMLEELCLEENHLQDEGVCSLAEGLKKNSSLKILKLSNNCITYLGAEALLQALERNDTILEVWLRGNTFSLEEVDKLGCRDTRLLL
Sequence of UniProt Q96CN7 (whole entry, looked up): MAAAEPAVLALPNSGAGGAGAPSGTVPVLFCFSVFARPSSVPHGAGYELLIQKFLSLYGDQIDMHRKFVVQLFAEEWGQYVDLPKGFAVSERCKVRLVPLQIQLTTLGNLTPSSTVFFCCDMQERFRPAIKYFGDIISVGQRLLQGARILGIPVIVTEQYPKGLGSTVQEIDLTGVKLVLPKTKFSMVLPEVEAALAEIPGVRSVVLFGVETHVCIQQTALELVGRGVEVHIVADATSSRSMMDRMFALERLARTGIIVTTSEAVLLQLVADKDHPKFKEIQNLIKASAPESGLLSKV
Sequence of UniProt P02754 (whole entry, unmodified, looked up): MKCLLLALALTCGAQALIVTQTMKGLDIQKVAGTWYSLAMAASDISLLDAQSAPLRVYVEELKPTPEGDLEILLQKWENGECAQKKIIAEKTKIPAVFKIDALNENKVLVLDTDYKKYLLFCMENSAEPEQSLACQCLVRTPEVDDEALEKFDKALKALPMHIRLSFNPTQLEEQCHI

SMILES | target | test | system | conditions | Kd
CCc1nc2cc3ccccc3cc2cc1C(=O)N[C@@H](CCCCN)C(=O)N[C@@H](C/C=C\C[C@H](NC(=O)[C@H](CCCCN)NC(=O)c1cc2cc3ccccc3cc2nc1CC)C(=O)N1CCC[C@H]1C(=O)NCCCN)C(=O)N1CCC[C@H]1C(=O)NCCCN | CUG–CAG duplex RNA | SPR | – | – | 0.0999 µM
CC(=O)NCCN(c1nc(NCc2n[nH]c3c2CCCC3)nc(N2CC3C(CCOc4cc(-c5scnc5C)ccc4CNC(=O)[C@@H]4C[C@@H](O)CN4C(=O)[C@@H](NC(=O)C4(F)CC4)C(C)(C)C)C3C2)n1)C(C)C (stereo partly shown) | VHL with elongin B/C | binary binding, SPR | – | – | 0.037 µM
C[n+]1cn([C@@H]2O[C@H](COP(=O)(O)OP(=O)([O-])OP(=O)(O)OC[C@H]3O[C@@H](n4cnc5c(N)ncnc54)[C@H](O)[C@@H]3OP(=O)(O)OC[C@H]3O[C@@H](n4cnc5c(=O)[nH]c(N)nc54)[C@H](O)[C@@H]3O)[C@@H](O)[C@H]2O)c2nc(N)nc(O)c21 | IFIT1 | microscale thermophoresis | – | pH 7.5, together with: structured cap III RNA, 70 nt | 0.1 µM
CCc1nc2cc3ccccc3cc2cc1C(=O)N1CCC[C@H]1C(=O)N[C@@H](C/C=C/C[C@H](NC(=O)[C@@H]1CCCN1C(=O)c1cc2cc3ccccc3cc2nc1CC)C(=O)N[C@@H](CCCCN)C(=O)NCCCN)C(=O)N[C@@H](CCCCN)C(=O)NCCCN | CUG–CAG duplex RNA | SPR | – | – | 0.188 µM
Cn1ncc2cc(-c3cncc(Cl)c3N3CCC4(CCNC4=O)CC3)ccc21 | Delta(3,5)-Delta(2,4)-dienoyl-CoA isomerase, mitochondrial (Homo sapiens, UniProt Q13011) | cell-free assay | – | lysate | 14.8 µM
Cc1cccc2c1N(C(=O)n1ccnn1)CC2 | KAI2 (Arabidopsis thaliana, UniProt Q9SZU7, L218I) | ITC | – | L218I mutant | 21.4 µM and 26.1 µM and 31.4 µM
Nc1nc2c(ncn2[C@@H]2O[C@H](COP(=O)(O)O[C@H]3[C@@H](O)[C@H](n4cnc5c(N)ncnc54)O[C@@H]3COP(=O)(O)OP(=O)(O)OP(=O)(O)OC[C@H]3O[C@@H](n4cnc5c(=O)[nH]c(N)nc54)[C@H](O)[C@@H]3O)[C@@H](O)[C@H]2O)c(=O)[nH]1 | IFIT1 | binding, microscale thermophoresis | – | pH 7.5, 70 nt capped RNA | 0.011 µM
O=C(NS(=O)(=O)c1cccs1)c1cc2ccccc2n1Cc1ccc(Br)c2ccccc12 | Solute carrier family 22 member 12 (SLC22A12, Homo sapiens, UniProt Q96S37) | binding, SPR | – | – | 2.84 µM
BP(=O)(OC[C@H]1O[C@@H](n2cnc3c(=O)[nH]c(N)nc32)[C@H](O)[C@@H]1O)OP(=O)([O-])OP(=O)(O)OC[C@H]1O[C@@H](n2c[n+](C)c3c(O)nc(N)nc32)[C@H](O)[C@@H]1O (stereo partly shown) | Eukaryotic translation initiation factor 4E, residues 28-217 (Eif4e, Mus musculus, UniProt P63073) | cap binding, fluorescence quenching titration | – | – | 0.07 µM
[3H]C([3H])([3H])Oc1ccccc1-c1cnn2ccc(NC[C@@H]3CCCN3C(=O)OC(C)(C)C)nc12 | AP2-associated protein kinase 1 (Mus musculus, UniProt Q3UHJ0) | binding, radioligand binding | – | – | 0.000467 ± 5.6e-05 µM
C=CC(=O)N1CC2(CCN(c3nc(OC4CCN(CCCOC)CC4)nc4c(OCC(F)(F)F)c(-c5c(C)ccc6[nH]ncc56)c(C5CC5)cc34)CC2)C1 | GTPase KRas, GDP-bound (KRAS, Homo sapiens, UniProt P01116, G12D) | binding, surface plasmon resonance | – | – | 20.4 ± 0.68 µM
Nc1ncnc2c1ncn2[C@@H]1O[C@@H]2COP(=O)(O)O[C@H]3C[C@H](n4cnc5c(N)ncnc54)O[C@@H]3COP(=O)(O)O[C@@H]1C2 | Stimulator of interferon genes protein (STING1, Homo sapiens, UniProt Q86WV6, R220H) | binding | – | – | 15.1 ± 14.5 µM
Cc1ncsc1-c1ccc(CNC(=O)[C@@H]2C[C@@H](O)CN2C(=O)[C@@H](NC(=O)C2(F)CC2)C(C)(C)C)c(OCCC2CCN(c3nc(N(C)CCNC(=O)C(C)C)nc(N4CCn5nnc(CO)c5C4)n3)CC2)c1 | VHL with elongin B/C | binary binding, SPR | – | – | 0.0092 µM
COc1cc(N2CCN(C)CC2)ccc1Nc1ncc2c(n1)N(C)c1ccc(C)cc1C(=O)N2CC(F)(F)F | Serine/threonine-protein kinase DCLK1 (DCLK1, Homo sapiens, UniProt O15075) | binding, ITC | – | – | > 3 µM
COC(=O)CCCNC(=O)c1cc(S(N)(=O)=O)c(Cl)cc1NC1CCCCC1 | Carbonic anhydrase 1 (CA1, Homo sapiens, UniProt P00915) | – | – | pH 7 | 8.3 µM
C[n+]1cn([C@@H]2O[C@H](COP(=O)(O)OP(=O)([O-])OP(=O)(O)OC[C@H]3O[C@@H](n4ccc(N)nc4=O)[C@H](O)[C@@H]3OP(=O)(O)OC[C@H]3O[C@@H](n4cnc5c(=O)[nH]c(N)nc54)[C@H](O)[C@@H]3O)[C@@H](O)[C@H]2O)c2nc(N)nc(O)c21 | IFIT1 | binding, microscale thermophoresis | – | pH 7.5, 70 nt capped RNA | 0.23 µM
CC(=O)N[C@H]1C(O)O[C@H](CO)[C@@H](O)[C@@H]1O[C@H](C)C(=O)N[C@@H](C)C(=O)N[C@H](CCC(=O)O)C(N)=O (stereo partly shown) | Nucleotide-binding oligomerization domain-containing protein 2 (NOD2, Homo sapiens, UniProt Q9HC29) | binding, backscattering interferometry | HEK293T cell vesicles | – | 0.003 to 0.03 µM
CO[C@@H]1[C@H](OP(=O)(O)OC[C@H]2O[C@@H](n3cnc4c(=O)[nH]c(N)nc43)[C@H](O)[C@@H]2O)[C@@H](COP(=O)(O)OP(=O)([O-])OP(=O)(O)OC[C@H]2O[C@@H](n3c[n+](C)c4c(O)nc(N)nc43)[C@H](O)[C@@H]2O)O[C@H]1n1cnc2c(N)ncnc21 | IFIT1 | microscale thermophoresis | – | pH 7.5, together with: structured cap III RNA, 70 nt | 0.52 µM
NCCCC[C@H](NC(=O)[C@H](C/C=C\C[C@H](NC(=O)[C@@H]1CCCN1)C(=O)N[C@@H](CCCCN)C(=O)NCCCN)NC(=O)[C@@H]1CCCN1)C(=O)NCCCN | CUG–CAG duplex RNA | SPR | – | – | 0.325 µM
Nc1nc2c(ncn2[C@@H]2O[C@H](COP(=O)(O)O[C@H]3[C@@H](O)[C@H](n4ccc(=O)[nH]c4=O)O[C@@H]3COP(=O)(O)OP(=O)(O)OP(=O)(O)O)[C@@H](O)[C@H]2O)c(=O)[nH]1 | IFIT1 | binding, microscale thermophoresis | – | pH 7.5 | 26000 µM
Cc1ncsc1-c1ccc(CNC(=O)[C@@H]2C[C@@H](O)CN2C(=O)[C@@H](NC(=O)COCC(C)(COCCOCCOCCNC(=O)C[C@@H]2N=C(c3ccc(Cl)cc3)c3c(sc(C)c3C)-n3c(C)nnc32)COCCOCCOCCNC(=O)C[C@@H]2N=C(c3ccc(Cl)cc3)c3c(sc(C)c3C)-n3c(C)nnc32)C(C)(C)C)cc1 | von Hippel-Lindau disease tumor suppressor, with Elongin B/C (VHL, Homo sapiens, UniProt P40337) | binding, SPR | – | binary, immobilized VCB complex | 0.624 ± 0.084 µM
CC(=O)NCC1CCCCN1c1nc(N2CCN(c3nnc[nH]3)CC2)nc(N2CC3C(CCOc4cc(-c5scnc5C)ccc4CNC(=O)[C@@H]4C[C@@H](O)CN4C(=O)[C@@H](NC(=O)C4(F)CC4)C(C)(C)C)C3C2)n1 (stereo partly shown) | VHL with elongin B/C | binary binding, SPR | – | – | 0.024 µM
COc1ccc(Cn2ccc3ccc(C(=O)NO)cc32)cc1 | Isochorismatase domain-containing protein 1 (Homo sapiens, UniProt Q96CN7) | inhibitor, competition pulldown | SW620 and MV4-11 lysate | 1 h | > 30.2 µM
Cc1ncc(CNc2nc(N3CC(CCOc4cc(-c5scnc5C)ccc4CNC(=O)[C@@H]4C[C@@H](O)CN4C(=O)[C@@H](NC(=O)C4(F)CC4)C(C)(C)C)C3)nc(N3CCC[C@H]3Cn3ccnn3)n2)c(N)n1 | VHL with elongin B/C | binary binding, SPR | – | – | 0.011 µM
CC(=O)c1cnc2ccc(-c3cc(Cl)c(O)c(Cl)c3)nc2c1N[C@H]1CC[C@H](CN(C)C)CC1 | Receptor-like protein kinase FERONIA (FER, Arabidopsis thaliana, UniProt Q9SCZ4, Y612A) | binding, SPR | – | mutant protein | > 100 µM
CC(=O)N1c2ccc(-c3ccc(CNC(=O)c4cn5cc(-c6cnc(N)nc6)nc(N6CCOCC6)c5n4)cc3)cc2CC[C@@H]1C | Bromodomain-containing protein 2, BD1 (BRD2, Homo sapiens, UniProt P25440) | binding, competition with immobilised ligand | – | – | 0.12 µM
C[n+]1cn([C@@H]2O[C@H](COP(=O)(O)OP(=O)([O-])OP(=O)(O)OC[C@H]3O[C@@H](n4cnc5c(=O)[nH]c(N)nc54)[C@H](O)[C@@H]3OP(=O)(O)OC[C@H]3O[C@@H](n4cnc5c(=O)[nH]c(N)nc54)[C@H](O)[C@@H]3O)[C@@H](O)[C@H]2O)c2nc(N)nc(O)c21 | IFIT1 | binding, microscale thermophoresis | – | pH 7.5 | 23 µM
O=C(O)[C@H]1O[C@@H](O[C@H]2[C@H](O)[C@H](O)[C@H](O[C@H]3[C@H](O)[C@H](O)[C@H](O)O[C@@H]3C(=O)O)O[C@H]2C(=O)O)[C@@H](O)[C@@H](O)[C@@H]1O[C@@H]1O[C@@H](C(=O)O)[C@@H](O)[C@H](O)[C@@H]1O | Beta-lactoglobulin (LGB, Bos taurus, UniProt P02754, A134V/G80D) | isothermal titration calorimetry | – | pH 2.65, 37 °C, 50 mM KH2PO4 | 439 µM

A few entries again:
SMILES | target | test | system | conditions | Kd
C[n+]1cn([C@@H]2O[C@H](COP(=O)(O)OP(=O)([O-])OP(=O)(O)OC[C@H]3O[C@@H](n4cnc5c(N)ncnc54)[C@H](O)[C@@H]3OP(=O)(O)OC[C@H]3O[C@@H](n4cnc5c(=O)[nH]c(N)nc54)[C@H](O)[C@@H]3O)[C@@H](O)[C@H]2O)c2nc(N)nc(O)c21 | IFIT1 | microscale thermophoresis | – | pH 7.5, together with: structured cap III RNA, 70 nt | 0.1 µM
CCc1nc2cc3ccccc3cc2cc1C(=O)N1CCC[C@H]1C(=O)N[C@@H](C/C=C/C[C@H](NC(=O)[C@@H]1CCCN1C(=O)c1cc2cc3ccccc3cc2nc1CC)C(=O)N[C@@H](CCCCN)C(=O)NCCCN)C(=O)N[C@@H](CCCCN)C(=O)NCCCN | CUG–CAG duplex RNA | SPR | – | – | 0.188 µM
Cn1ncc2cc(-c3cncc(Cl)c3N3CCC4(CCNC4=O)CC3)ccc21 | Delta(3,5)-Delta(2,4)-dienoyl-CoA isomerase, mitochondrial (Homo sapiens, UniProt Q13011) | cell-free assay | – | lysate | 14.8 µM
